{"data": "Measurements collected from several papers", "note": "Every numbered part comes from another study and shows a few of its results, in no order.", "UniProt P35968, sequence (whole entry, looked up)": "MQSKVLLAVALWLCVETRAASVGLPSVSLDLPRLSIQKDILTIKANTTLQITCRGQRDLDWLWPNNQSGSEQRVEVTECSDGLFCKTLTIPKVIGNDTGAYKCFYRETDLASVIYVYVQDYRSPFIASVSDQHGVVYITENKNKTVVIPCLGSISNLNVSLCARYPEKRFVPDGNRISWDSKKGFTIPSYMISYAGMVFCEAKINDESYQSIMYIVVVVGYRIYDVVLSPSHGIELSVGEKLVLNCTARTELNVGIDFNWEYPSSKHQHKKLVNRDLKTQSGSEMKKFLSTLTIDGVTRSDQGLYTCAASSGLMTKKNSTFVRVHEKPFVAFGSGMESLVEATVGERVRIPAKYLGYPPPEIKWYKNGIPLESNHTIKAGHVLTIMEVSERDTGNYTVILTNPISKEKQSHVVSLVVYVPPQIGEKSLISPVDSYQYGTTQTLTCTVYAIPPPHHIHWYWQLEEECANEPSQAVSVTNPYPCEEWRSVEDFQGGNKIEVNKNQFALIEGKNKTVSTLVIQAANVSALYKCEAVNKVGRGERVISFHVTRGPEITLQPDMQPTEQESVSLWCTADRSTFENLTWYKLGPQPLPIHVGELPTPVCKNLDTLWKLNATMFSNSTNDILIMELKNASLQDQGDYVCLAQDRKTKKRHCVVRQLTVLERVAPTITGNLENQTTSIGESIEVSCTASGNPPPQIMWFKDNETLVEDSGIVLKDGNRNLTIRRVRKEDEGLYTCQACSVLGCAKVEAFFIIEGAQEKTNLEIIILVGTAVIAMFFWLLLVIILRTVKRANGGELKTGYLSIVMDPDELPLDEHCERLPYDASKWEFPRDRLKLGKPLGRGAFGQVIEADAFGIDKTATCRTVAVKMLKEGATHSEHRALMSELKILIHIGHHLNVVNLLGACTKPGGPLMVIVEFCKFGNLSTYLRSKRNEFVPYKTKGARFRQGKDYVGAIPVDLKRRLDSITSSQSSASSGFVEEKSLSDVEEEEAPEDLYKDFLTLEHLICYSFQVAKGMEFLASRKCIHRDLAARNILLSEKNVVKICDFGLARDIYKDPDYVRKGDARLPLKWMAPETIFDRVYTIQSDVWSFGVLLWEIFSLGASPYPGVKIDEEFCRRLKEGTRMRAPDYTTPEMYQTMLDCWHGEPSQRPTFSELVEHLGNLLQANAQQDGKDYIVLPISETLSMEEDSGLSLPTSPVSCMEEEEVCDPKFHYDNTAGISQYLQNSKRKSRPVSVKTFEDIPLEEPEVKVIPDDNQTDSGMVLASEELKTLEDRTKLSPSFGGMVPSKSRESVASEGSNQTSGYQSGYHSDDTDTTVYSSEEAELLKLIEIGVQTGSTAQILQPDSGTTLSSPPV", "UniProt Q08881, sequence (whole entry, looked up)": "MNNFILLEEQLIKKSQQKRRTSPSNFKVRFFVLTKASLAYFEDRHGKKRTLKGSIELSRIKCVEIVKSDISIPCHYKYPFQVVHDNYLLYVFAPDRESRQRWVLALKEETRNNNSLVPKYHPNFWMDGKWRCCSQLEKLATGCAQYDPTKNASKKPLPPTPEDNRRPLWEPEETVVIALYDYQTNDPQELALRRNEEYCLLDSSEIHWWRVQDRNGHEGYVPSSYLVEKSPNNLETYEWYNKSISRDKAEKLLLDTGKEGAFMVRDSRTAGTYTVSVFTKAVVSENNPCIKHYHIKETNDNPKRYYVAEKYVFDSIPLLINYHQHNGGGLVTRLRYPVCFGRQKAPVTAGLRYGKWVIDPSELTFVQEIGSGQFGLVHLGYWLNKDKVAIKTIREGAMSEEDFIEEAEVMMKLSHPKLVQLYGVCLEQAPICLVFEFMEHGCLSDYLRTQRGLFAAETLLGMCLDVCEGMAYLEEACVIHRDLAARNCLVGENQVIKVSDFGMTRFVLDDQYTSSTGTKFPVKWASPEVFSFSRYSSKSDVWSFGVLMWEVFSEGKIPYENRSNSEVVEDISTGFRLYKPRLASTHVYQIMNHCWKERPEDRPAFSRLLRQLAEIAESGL", "UniProt P61075, sequence (whole entry, looked up)": "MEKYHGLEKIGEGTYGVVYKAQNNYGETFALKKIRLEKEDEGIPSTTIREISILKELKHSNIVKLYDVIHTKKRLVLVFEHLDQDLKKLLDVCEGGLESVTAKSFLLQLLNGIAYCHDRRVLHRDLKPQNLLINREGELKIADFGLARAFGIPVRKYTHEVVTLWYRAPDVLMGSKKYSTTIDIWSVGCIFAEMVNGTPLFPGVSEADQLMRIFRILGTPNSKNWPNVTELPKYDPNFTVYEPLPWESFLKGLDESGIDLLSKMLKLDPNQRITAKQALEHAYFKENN", "UniProt P62344, sequence (whole entry, looked up)": "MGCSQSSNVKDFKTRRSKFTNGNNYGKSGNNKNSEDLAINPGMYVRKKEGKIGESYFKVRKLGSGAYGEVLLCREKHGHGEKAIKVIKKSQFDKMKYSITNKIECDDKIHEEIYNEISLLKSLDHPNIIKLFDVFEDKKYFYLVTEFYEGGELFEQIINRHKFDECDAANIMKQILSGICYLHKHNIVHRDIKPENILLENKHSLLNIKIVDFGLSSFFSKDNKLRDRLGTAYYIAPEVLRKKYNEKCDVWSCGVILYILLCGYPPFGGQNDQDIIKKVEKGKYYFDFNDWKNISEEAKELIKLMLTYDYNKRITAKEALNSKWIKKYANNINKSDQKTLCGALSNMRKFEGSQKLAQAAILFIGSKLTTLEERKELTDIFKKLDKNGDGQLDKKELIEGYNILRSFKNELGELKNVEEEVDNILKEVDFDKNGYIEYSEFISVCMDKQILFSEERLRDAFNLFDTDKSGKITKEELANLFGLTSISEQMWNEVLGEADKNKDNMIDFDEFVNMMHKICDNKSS", "UniProt Q09013, sequence (whole entry, looked up)": "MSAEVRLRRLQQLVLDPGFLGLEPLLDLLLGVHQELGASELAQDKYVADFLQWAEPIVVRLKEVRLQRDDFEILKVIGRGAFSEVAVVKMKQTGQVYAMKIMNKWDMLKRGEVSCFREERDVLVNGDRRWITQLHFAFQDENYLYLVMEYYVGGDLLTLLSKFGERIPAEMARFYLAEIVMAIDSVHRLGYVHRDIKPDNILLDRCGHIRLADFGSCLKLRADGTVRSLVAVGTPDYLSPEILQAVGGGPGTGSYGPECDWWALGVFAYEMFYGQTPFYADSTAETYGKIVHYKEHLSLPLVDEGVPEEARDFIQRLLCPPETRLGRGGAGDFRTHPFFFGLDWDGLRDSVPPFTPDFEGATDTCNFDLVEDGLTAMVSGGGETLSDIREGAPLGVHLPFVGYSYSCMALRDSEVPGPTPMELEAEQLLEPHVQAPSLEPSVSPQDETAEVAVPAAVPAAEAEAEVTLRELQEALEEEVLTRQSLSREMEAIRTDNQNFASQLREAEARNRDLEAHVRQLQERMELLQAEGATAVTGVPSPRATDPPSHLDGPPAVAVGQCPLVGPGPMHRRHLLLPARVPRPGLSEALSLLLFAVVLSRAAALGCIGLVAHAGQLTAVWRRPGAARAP", "UniProt Q13557, sequence (whole entry, looked up)": "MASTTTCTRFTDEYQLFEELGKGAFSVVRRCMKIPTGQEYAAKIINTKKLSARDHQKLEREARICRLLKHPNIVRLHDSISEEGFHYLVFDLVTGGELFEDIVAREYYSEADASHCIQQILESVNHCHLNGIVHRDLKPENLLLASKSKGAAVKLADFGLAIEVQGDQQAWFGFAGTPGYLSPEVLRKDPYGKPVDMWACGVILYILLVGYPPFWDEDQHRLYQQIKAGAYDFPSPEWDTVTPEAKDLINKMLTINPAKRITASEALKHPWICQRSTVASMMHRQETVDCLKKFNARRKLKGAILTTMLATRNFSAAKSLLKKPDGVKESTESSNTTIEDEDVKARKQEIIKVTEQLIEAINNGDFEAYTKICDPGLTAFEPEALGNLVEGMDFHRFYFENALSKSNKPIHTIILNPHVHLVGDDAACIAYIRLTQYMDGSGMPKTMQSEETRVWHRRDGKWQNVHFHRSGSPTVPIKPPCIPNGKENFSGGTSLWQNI"}
{"data": "Study 1", "cell line": "Huh-7", "tested at": "10 µM", "time": "24 h"}
{"Structure (SMILES)": "CCCC(C)(COC(N)=O)COC(=O)NC(C)C (centres unmarked)", "viability [%]": 93.8}
{"Structure (SMILES)": "O=P1(N(CCCl)CCCl)NCCCO1 (centres unmarked)", "viability [%]": 98.3}
{"Structure (SMILES)": "NC(=O)C[S+]([O-])C(c1ccccc1)c1ccccc1 (centres unmarked)", "viability [%]": 95.7}
{"Structure (SMILES)": "O=P1(NCCCl)OCCCN1CCCl (centres unmarked)", "viability [%]": 92}
{"Structure (SMILES)": "COP(=S)(OC)Oc1cc(Cl)c(Cl)cc1Cl", "viability [%]": 94}
{"Structure (SMILES)": "Cc1cc(O)ccc1Cl", "viability [%]": 104}
{"data": "Study 2", "Compound": "CNC(=O)c1ccc(-c2cnn3ccc(C(=O)N(C)c4ccc(Cl)c(C(=O)OC)c4)cc23)cc1"}
{"target": "SYK (Homo sapiens, UniProt P43405)", "read-out": "enzyme activity", "action": "inhibitor", "IC50 [µM]": "> 30"}
{"target": "SLK (Homo sapiens, UniProt Q9H2G2)", "read-out": "enzyme activity", "action": "inhibitor", "IC50 [µM]": "> 30"}
{"target": "PI4KB (Homo sapiens, UniProt Q9UBF8)", "read-out": "enzyme activity", "action": "inhibitor", "method": "ADP-Glo", "IC50 [µM]": 0.745}
{"target": "FGFR4 (Homo sapiens, UniProt P22455)", "read-out": "enzyme activity", "action": "inhibitor", "IC50 [µM]": "> 30"}
{"target": "Prothrombin (F2, Homo sapiens, UniProt P00734)", "read-out": "cell-free assay", "IC50 [µM]": "> 30"}
{"target": "JAK2 (Homo sapiens, UniProt O60674)", "read-out": "enzyme activity", "action": "inhibitor", "IC50 [µM]": "> 30"}
{"target": "PRKCA (Homo sapiens, UniProt P17252)", "read-out": "enzyme activity", "action": "inhibitor", "IC50 [µM]": "> 30"}
{"target": "PRKCQ (Homo sapiens, UniProt Q04759)", "read-out": "enzyme activity", "action": "inhibitor", "IC50 [µM]": "> 30"}
{"target": "CAMK2D (Homo sapiens, UniProt Q13557)", "read-out": "enzyme activity", "action": "inhibitor", "IC50 [µM]": "> 30"}
{"target": "DMPK (Homo sapiens, UniProt Q09013)", "read-out": "enzyme activity", "action": "inhibitor", "IC50 [µM]": "> 30"}
{"target": "PKN2 (Homo sapiens, UniProt Q16513)", "read-out": "enzyme activity", "action": "inhibitor", "IC50 [µM]": "> 30"}
{"target": "rat benzodiazepine receptor", "read-out": "binding", "IC50 [µM]": "> 30"}
{"target": "DRD1 (Homo sapiens, UniProt P21728)", "read-out": "cell-free assay", "IC50 [µM]": "> 30"}
{"target": "ZAP70 (Homo sapiens, UniProt P43403)", "read-out": "enzyme activity", "action": "inhibitor", "IC50 [µM]": "> 30"}
{"target": "KDR (Homo sapiens, UniProt P35968)", "read-out": "enzyme activity", "action": "inhibitor", "IC50 [µM]": "> 30"}
{"target": "HTR1A (Homo sapiens, UniProt P08908)", "read-out": "cell-free assay", "IC50 [µM]": "> 30"}
{"data": "Study 3", "target": "Calcium/calmodulin-dependent protein kinase type II subunit alpha (CAMK2A, Homo sapiens, UniProt Q9UQM7)", "read-out": "enzyme activity", "action": "inhibitor", "tested at": "10 µM", "UniProt Q9UQM7, sequence (whole entry, looked up)": "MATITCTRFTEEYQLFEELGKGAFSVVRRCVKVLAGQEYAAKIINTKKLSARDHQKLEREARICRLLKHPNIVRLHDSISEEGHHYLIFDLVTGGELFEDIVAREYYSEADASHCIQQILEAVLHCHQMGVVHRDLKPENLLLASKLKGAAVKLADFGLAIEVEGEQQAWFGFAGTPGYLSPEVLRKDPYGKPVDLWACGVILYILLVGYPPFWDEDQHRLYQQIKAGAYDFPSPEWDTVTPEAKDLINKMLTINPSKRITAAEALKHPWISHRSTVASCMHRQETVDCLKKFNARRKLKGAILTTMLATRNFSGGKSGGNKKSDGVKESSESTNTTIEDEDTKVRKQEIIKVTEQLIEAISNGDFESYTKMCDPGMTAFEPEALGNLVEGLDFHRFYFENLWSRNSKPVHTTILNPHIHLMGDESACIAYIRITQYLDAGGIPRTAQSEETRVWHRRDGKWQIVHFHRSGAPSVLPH"}
{"Compound": "C[C@@H]1CCC=C2C(=O)C[C@H]3OOC(C)(C)[C@H]3[C@]21C", "inhibition [%]": -38}
{"Compound": "O=C(O)[C@@H]1CCN1", "inhibition [%]": -5}
{"Compound": "C[C@]12CCC(=O)C=C1C=C[C@@H]1[C@@H]2CC[C@@]2(C)[C@H]1CC[C@@]2(O)CCC(=O)O", "inhibition [%]": -16}
{"Compound": "O=C(O)c1cccc2nc3ccccc3nc12", "inhibition [%]": 6}
{"data": "Study 4", "SMILES": "CCn1cnc2c(Nc3cccc(Cl)c3)nc(N[C@H]3CCCC[C@H]3N)nc21", "read-out": "enzyme activity", "action": "inhibitor", "tested at": "0.5 µM", "baseline": "control"}
{"target": "CDC42BPA (Homo sapiens, UniProt Q5VT25)", "remaining activity [%]": 93.4}
{"target": "STK25 (Homo sapiens, UniProt O00506)", "remaining activity [%]": 101}
{"target": "ITK (Homo sapiens, UniProt Q08881)", "remaining activity [%]": 105}
{"target": "FYN (Homo sapiens, UniProt P06241)", "remaining activity [%]": 48.6}
{"target": "NEK11 (Homo sapiens, UniProt Q8NG66)", "remaining activity [%]": 101}
{"target": "FLT4 (Homo sapiens, UniProt P35916)", "remaining activity [%]": 105}
{"target": "AKT1 (Homo sapiens, UniProt P31749)", "remaining activity [%]": 108}
{"target": "HIPK1 (Homo sapiens, UniProt Q86Z02)", "remaining activity [%]": 97.5}
{"target": "Insulin receptor (INSR, Homo sapiens, UniProt P06213)", "remaining activity [%]": 91.3}
{"target": "PASK (Homo sapiens, UniProt Q96RG2)", "remaining activity [%]": 88}
{"target": "ALK (Homo sapiens, UniProt Q9UM73)", "remaining activity [%]": 92.3}
{"data": "Further values, each from its own experiment", "read-out": "cell-free assay", "method": "competition with immobilised ligand", "tested at": "1 µM", "pknB": "Serine/threonine-protein kinase PknB (pknB, Mycobacterium tuberculosis, UniProt P9WI81)", "UniProt P9WI81, sequence (whole entry, looked up)": "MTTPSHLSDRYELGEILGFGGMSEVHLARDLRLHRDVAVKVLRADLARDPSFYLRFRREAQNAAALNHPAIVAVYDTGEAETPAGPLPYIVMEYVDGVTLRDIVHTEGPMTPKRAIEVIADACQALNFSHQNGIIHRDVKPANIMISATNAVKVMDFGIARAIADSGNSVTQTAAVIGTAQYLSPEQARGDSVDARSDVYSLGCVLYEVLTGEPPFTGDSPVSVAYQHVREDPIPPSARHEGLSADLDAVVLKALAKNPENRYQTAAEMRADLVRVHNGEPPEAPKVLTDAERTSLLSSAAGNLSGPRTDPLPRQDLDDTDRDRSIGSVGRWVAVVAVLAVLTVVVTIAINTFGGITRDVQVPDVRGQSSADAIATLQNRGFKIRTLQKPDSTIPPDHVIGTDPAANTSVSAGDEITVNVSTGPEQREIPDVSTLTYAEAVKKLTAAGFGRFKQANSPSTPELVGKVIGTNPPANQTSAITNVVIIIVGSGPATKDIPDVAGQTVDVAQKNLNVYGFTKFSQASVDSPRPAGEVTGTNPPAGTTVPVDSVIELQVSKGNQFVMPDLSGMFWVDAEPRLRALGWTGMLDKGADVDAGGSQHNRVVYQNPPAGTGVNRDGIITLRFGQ"}
{"SMILES": "C[C@@]1(Cc2ccc(C#N)cc2)C(=O)N(c2cc(Cl)cc(Cl)c2)c2ncc(C(=O)NC3(c4nc(C5CCC5)no4)CC3)n21", "target": "pknB", "remaining binding [%]": 96}
{"SMILES": "Cc1nc(C2CCN(C(=O)c3ccc(OC(F)(F)F)cc3N)CC2)c2ncc(N3CCN(C)CC3)cc2n1", "target": "pknB", "remaining binding [%]": 100}
{"SMILES": "Cc1cc(-n2nc(Cc3cc(F)cc(C(F)(F)F)c3)nc2C)ccc1C(N)=O", "target": "CRK2 (Plasmodium falciparum, UniProt P61075)", "remaining binding [%]": 100}
{"SMILES": "O=S(=O)(NC1CCC(c2cc(F)ccc2F)(S(=O)(=O)c2ccc(Cl)cc2)CC1)C(F)(F)F (centres unmarked)", "target": "CDPK1 (Plasmodium falciparum, UniProt P62344)", "remaining binding [%]": 100}
{"note": "Excerpt of the above (study 1):"}
{"Structure (SMILES)": "O=P1(N(CCCl)CCCl)NCCCO1 (centres unmarked)", "viability [%]": 98.3}
{"Structure (SMILES)": "NC(=O)C[S+]([O-])C(c1ccccc1)c1ccccc1 (centres unmarked)", "viability [%]": 95.7}
{"Structure (SMILES)": "O=P1(NCCCl)OCCCN1CCCl (centres unmarked)", "viability [%]": 92}
{"Structure (SMILES)": "COP(=S)(OC)Oc1cc(Cl)c(Cl)cc1Cl", "viability [%]": 94}
